Assay results gathered from unrelated publications.
A part holds a random share of what one study measured.

Series 1
Target: Interferon regulatory factor 7, full length, phosphomimetic (IRF7, Homo sapiens, UniProt Q92985, residues 1-503, S101K/S471D/S472D/S475D/S476D/S477D/S483D/S484D/S487D)
Method: protein-binding microarray
Molecule type: double-stranded DNA, one strand shown
Matrix: in vitro
Concentration: 250 nM
Setting: 60-bp whole probe
With: salmon DNA 0.4 mg/ml
Relative to: random background probes
Direction: higher = stronger binding
Target sequence (chain): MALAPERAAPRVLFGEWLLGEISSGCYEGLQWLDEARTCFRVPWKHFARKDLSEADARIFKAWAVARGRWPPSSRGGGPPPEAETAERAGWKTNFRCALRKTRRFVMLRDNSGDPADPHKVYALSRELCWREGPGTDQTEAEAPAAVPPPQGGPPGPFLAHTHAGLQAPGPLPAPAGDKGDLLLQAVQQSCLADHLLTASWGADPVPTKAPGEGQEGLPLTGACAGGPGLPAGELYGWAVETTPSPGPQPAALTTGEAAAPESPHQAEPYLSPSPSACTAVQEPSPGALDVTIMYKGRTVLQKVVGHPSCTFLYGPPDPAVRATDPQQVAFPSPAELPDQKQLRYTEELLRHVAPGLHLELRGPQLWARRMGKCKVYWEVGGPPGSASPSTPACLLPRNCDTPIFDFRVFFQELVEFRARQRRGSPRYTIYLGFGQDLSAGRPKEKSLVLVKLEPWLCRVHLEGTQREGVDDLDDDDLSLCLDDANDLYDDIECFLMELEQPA
`GCCTAGCACTCATGTTTCCATCTCTCACTGTGCTAGGTCTTGATTCGCTTGACGCTGCTG` has a log fluorescence of 2.63 z-score.
For `GCCTAGCACGACGGTTTCGGTATCGGGTCGTGCTAGGTCTTGATTCGCTTGACGCTGCTG`, the log fluorescence was 11 z-score.
`GCCTAGCACTTAGGACTGGGTATCGATTAGTGCTAGGTCTTGATTCGCTTGACGCTGCTG` gave a log fluorescence of 0.839 z-score.

Series 2
Target: Sal-like protein 4, full length isoform B (SALL4, Homo sapiens, UniProt Q9UJQ4-2, residues 1-616)
Method: universal PBM
Molecule type: double-stranded DNA, one strand shown
Matrix: in vitro
Concentration: not given
Setting: 8-mer, flanks averaged, mean of replicates
Direction: higher = stronger binding
`ACTACCGG` gave an E-score of -0.29.
For `GATCGTAA`, the E-score was 0.125.
`CATCTCTA` gave an E-score of 0.086.
`AAGAATAC` gave an E-score of 0.216.

Series 3
Target: Prothrombin, mature alpha-thrombin (F2, Homo sapiens, UniProt P00734)
Method: aptamer microarray, sandwich
Molecule type: DNA with 2'F-ANA
Matrix: in vitro
Concentration: 200 nM
Setting: whole 15-mer aptamer, many near background
With: Cy3 exosite-II aptamer, 400 nM
Direction: higher = stronger binding
For `GGTTGGTGTGGTTGG (2'F-ANA at 1 3 4 5 6 8 9 10 11 12 13 14)`, “mean fluorescence intensity” read 53.5 a.u.
`GGTTGGTGTGGTTGG (2'F-ANA at 1 3 4 7 8 10 15)` — result for “mean fluorescence intensity”: 126 a.u.
Under “mean fluorescence intensity”, `GGTTGGTGTGGTTGG (2'F-ANA at 2 9 10 12)` is recorded as 173 a.u.
`GGTTGGTGTGGTTGG (2'F-ANA at 5 6 8 9 10 14 15)` — result for “mean fluorescence intensity”: 46.9 a.u.

Single results of other studies
For `PhoQ, residues 284 288 289 292 302 303 AGGCYF`, the fold induction was 20.6 (PhoP, residues 12 14 15 18 19 LWHVM (Escherichia coli, UniProt P23836); Sort-seq, measured: YFP reporter; E. coli; PhoQ-PhoP variant library, with: 10 µM Mg2+; relative to: high Mg2+ state, higher = stronger signaling).
